Experimental data of several laboratories.
Every numbered part comes from another study and shows a few of its results, in no order. Positions count from the first letter of the parent shown.
UniProt P68036, sequence (whole entry, looked up): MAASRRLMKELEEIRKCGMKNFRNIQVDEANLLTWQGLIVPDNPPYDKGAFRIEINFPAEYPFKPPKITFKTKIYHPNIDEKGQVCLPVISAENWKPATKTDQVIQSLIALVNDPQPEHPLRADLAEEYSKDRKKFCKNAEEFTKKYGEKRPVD
UniProt Q8N2K1, sequence (whole entry, looked up): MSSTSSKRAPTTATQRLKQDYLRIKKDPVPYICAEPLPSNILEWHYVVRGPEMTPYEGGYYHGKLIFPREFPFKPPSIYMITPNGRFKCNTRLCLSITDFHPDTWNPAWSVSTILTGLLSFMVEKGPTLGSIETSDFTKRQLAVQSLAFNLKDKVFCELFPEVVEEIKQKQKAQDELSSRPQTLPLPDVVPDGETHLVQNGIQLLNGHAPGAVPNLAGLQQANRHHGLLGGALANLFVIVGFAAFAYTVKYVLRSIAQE
UniProt Q712K3, sequence (whole entry, looked up): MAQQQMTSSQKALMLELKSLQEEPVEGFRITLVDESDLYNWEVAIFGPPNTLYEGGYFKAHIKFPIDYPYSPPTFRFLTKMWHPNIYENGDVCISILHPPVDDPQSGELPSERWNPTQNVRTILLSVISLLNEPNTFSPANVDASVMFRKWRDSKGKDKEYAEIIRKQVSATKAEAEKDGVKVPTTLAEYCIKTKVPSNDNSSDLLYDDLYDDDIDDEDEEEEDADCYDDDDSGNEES
UniProt Q9Y385, sequence (whole entry, looked up): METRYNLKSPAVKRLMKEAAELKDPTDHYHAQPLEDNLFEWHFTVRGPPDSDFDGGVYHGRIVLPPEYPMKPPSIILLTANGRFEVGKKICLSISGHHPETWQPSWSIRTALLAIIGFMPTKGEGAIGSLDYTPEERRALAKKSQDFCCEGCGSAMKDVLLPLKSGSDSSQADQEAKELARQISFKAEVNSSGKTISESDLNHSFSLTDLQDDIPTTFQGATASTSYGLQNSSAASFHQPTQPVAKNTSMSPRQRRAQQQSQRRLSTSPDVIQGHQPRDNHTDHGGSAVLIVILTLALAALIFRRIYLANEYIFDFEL
UniProt Q9NPD8, sequence (whole entry, looked up): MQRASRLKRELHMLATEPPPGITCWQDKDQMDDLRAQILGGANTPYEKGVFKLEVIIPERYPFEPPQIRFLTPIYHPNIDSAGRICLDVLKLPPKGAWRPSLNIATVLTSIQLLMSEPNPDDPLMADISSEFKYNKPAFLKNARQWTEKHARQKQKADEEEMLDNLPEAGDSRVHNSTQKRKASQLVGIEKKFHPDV
UniProt Q7Z7E8, sequence (whole entry, looked up): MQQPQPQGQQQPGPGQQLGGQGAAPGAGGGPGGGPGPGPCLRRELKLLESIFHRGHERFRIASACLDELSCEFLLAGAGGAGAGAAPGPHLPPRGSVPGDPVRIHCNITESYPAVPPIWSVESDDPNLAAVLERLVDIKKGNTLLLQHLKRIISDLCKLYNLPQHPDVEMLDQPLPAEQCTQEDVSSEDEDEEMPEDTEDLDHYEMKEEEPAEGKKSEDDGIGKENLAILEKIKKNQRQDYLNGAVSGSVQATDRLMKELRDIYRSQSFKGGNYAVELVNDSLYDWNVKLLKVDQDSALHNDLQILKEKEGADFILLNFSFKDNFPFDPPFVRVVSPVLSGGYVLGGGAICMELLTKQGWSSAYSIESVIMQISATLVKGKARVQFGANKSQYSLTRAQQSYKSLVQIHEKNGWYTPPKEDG

Block 1
Molecule: B1 (DTX1 RING domain)
Technique: yeast two-hybrid
Medium: yeast
Notes: mostly zero background
Reference: not given
Direction: higher = stronger interaction
B1: DTX1 RING domain (UniProt Q86Y01); chain QKVKNPPDEDCTICMERLVTASGYEGVLRHKGVRPELVGRLGRCGHMYHLLCLVAMYSNGNKDGSLQCPTCKAIYGEKTGTQ
target	lacZ reporter activity
UBE2T UBC core domain (UniProt Q9NPD8)	0
UBE2J1 UBC core domain (UniProt Q9Y385)	0
UBE2J2 UBC core domain (UniProt Q8N2K1)	0
UBE2R2 UBC core domain (UniProt Q712K3)	0
UBE2L3 UBC core domain (UniProt P68036)	0
UBE2I UBC core domain (UniProt P63279)	0
UBE2Q1 UBC core domain (UniProt Q7Z7E8)	0

Block 2
Target: Histone acetyltransferase KAT6A, both winged helices, GST fusion (KAT6A, Homo sapiens, UniProt Q92794, residues 1-181)
Technique: protein binding microarray
Molecule type: double-stranded DNA, one strand shown
Medium: in vitro
Concentration: not given
Notes: 8-mer, flanks averaged, mean of 2 arrays, mostly near background
Reference: not given
Direction: higher = stronger binding
Residues (chain): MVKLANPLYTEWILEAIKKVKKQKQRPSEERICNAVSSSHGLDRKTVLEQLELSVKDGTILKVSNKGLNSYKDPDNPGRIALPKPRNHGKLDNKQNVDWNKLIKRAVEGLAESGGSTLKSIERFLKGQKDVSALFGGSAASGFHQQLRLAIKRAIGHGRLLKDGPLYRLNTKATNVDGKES
Sequence	E-score
ACTTTGGA	-0.0625
GATTTGCC	-0.0778
GACTGGTA	0.0787
TATCGGCA	0.154
TGACAACA	-0.0864
TATATTCA	0.031
ACAGACGA	-0.00502
ATATATGG	-0.0611
GAACGGCA	0.246
CAGCACGA	-0.0636
TGCCCAAA	-0.0582
GCTACTCA	-0.176
GGAACAGA	-0.073
ACCCCCAG	-0.269
ACGTTTAT	0.101
CTCGGTAC	-0.0909
ATACGGAA	0.204

Block 3
Target: CCND3, cyclin fold, Cln2 fusion (human)
Technique: yeast growth competition, sequencing
Medium: yeast
Notes: weak parent motif
Reference: not given
Direction: higher = stronger binding
Parent: E2F1 docking peptide (human); PPVKRRLDFETDH
Variant	normalised enrichment score
T11S	0.854
F9R	-0.00684
E10G	0.547
V3G	0.375
F9N	0.111
T11W	0.535
P2I	0.254
E10A	0.274
T11G	0.192
K4Q	0.421
F9G	0.0224
V3K	0.0281
L7Q	0.147

Block 4
Target: Runt-related transcription factor 3, Runt domain (RUNX3, Homo sapiens, UniProt Q13761, residues 53-186)
UniProt Q13761, sequence (53-186, looked up): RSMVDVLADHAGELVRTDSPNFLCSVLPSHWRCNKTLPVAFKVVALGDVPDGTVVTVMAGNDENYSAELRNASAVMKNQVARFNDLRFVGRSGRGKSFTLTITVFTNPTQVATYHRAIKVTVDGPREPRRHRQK
Technique: protein-binding microarray
Molecule type: hairpin DNA
Medium: in vitro
Concentration: not given
Notes: whole hairpin DNA, median over replicate spots
Reference: not given
Direction: higher = stronger binding
Sequence	median fluorescence
GAGGCCTGTTGCCGTTGGCCTCCTGGCCAACGGCAACAGGCCTCACACTC (5mC at 13 31)	4750 a.u.
GAGGCCTGATGTGGTTGGCCTCCTGGCCAACCACATCAGGCCTCACACTC	4720 a.u.
GAGGCCTGTCGCAGTTGGCCTCCTGGCCAACTGCGACAGGCCTCACACTC	4970 a.u.
GAGGCCTGTCGCGGTTAGCCTCCTGGCTAACCGCGACAGGCCTCACACTC	6210 a.u.
GAGGCCTGTTGTGGCGGGCCTCCTGGCCCGCCACAACAGGCCTCACACTC (5mC at 29)	5070 a.u.
GAGGCCCAACCGCACGAGCCTCCTGGCTCGTGCGGTTGGGCCTCACACTC	7510 a.u.
GAGGCCTGTTGCGCTTGGCCTCCTGGCCAAGCGCAACAGGCCTCACACTC (5mC at 14)	4800 a.u.
GAGGCCTGTTGCGGTTGGCCTCCTGGCCAACCGCAACAGGCCTCACACTC (5mC at 12)	5860 a.u.
GAGGCCTGTTGTCGTTGGCCTCCTGGCCAACGACAACAGGCCTCACACTC (5mC at 31)	4610 a.u.
GAGGCCTGTTGTGGCTGGCCTCCTGGCCAGCCACAACAGGCCTCACACTC (5mC at 15)	5000 a.u.
GAGGCCCAACCCGAACAGCCTCCTGGCTGTTCGGGTTGGGCCTCACACTC (5mC at 12 32)	5280 a.u.
GAGGCCTGATGCGGTTGGCCTCCTGGCCAACCGCATCAGGCCTCACACTC	5970 a.u.
CTCAGTTCTTTGGGCTGGACTCCTGTCCAGCCCAAAGAACTGAGACACTC	3750 a.u.
CTCAGTTCTGCGGGCTGGACTCCTGTCCAGCCCGCAGAACTGAGACACTC (5mC at 11 33)	4130 a.u.
CTCAGATCTGTGGGCTGGACTCCTGTCCAGCCCACAGATCTGAGACACTC	3770 a.u.
GAGGCCTGTTCTGGTTGGCCTCCTGGCCAACCAGAACAGGCCTCACACTC	4780 a.u.
GAGGCCTGTTGGGGTTGGCCTCCTGGCCAACCCCAACAGGCCTCACACTC	4890 a.u.

Block 5
Target: Phosphate system positive regulatory protein PHO4, full length, GST-tagged (PHO4, Saccharomyces cerevisiae, UniProt P07270, residues 1-312)
Technique: competition protein-binding microarray
Molecule type: double-stranded DNA, one strand shown
Medium: in vitro
Concentration: 2 µM
Notes: whole 60-bp probe, lowest competitor level
With: Cbf1 competitor, 0.05 µM
Direction: higher = stronger binding
Constant ends, left off below: … GTCTTGATTCGCTTGACGCTGCTG
Construct (chain): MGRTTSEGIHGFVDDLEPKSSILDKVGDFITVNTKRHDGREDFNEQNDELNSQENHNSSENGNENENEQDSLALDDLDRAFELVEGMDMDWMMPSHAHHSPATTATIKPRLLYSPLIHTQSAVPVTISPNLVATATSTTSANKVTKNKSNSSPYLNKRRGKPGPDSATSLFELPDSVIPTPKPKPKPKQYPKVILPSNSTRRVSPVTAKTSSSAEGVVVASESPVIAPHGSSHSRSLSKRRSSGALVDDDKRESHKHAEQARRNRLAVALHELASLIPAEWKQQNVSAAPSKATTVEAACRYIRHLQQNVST
Sequence	fluorescence intensity [a.u.]
GTAATGCCATGGTTTCGCGTGCTTTTTTCCCCTTGC	6960
ATCCTCTTCTTCGTCCACGTGCCGACTTTTGTTTCT	16400
AAGTTCACTTGATGTGGCGTGATGGTCCTTTACCCG	5010
GTCTTGTCTCATTGTCACTGGACTTTCCCCACTTCA	4140
TGCGCAACAACTTTTCACGTGTTTTTATGTCTAGAA	14800
AGTGCCAGGTAAGTTGTCGTGGGTATCACCCGGAGA	4870
ATGCCCGACCGTACCGACGTGGCAATATTTTTGGGA	5430
CTTTCCCGATCTTGGGGAGTGGGTGTAGCACATTTG	4880
TAGGAAGAACCGGTTCTCGTGGTGATGTCCCCCAAG	6790
AAAGCGGTAATTTGCGACGTGGGTGCAGATATCTAT	7540
GAACCGATGACGAGGCACATGGGGATAGAACCTCCG	12700
CCTTCACTATTTTAACATGTGGAATTCTTGAAAGAA	8850
AATCTCGAGTAGGTGCACGTGGTACCTACCTCGAGA	17400
GCATTGATCAATTTGCACGATGGAAAATTTTTCACT	8640
CCGCCCCCCACCTTGCATGCGGATTGGTTGTCCAAA	7310
AAATTACTAAGTTGCGAAGTGGGTGACGCCGTATGA	3210
CCGCAACTCCGCGATCGCGCGCCAAGGGCCGTCGGC	2340

Block 6
Target: PABPC1L2, full length, GST fusion (mouse, UniProt A0ABA7IW68)
Technique: RNAcompete
Molecule type: RNA
Medium: in vitro
Concentration: 20 nM
Notes: 7-mer, probes averaged, single round
Reference: mean of 7-mers
Direction: higher = stronger binding
Construct (chain): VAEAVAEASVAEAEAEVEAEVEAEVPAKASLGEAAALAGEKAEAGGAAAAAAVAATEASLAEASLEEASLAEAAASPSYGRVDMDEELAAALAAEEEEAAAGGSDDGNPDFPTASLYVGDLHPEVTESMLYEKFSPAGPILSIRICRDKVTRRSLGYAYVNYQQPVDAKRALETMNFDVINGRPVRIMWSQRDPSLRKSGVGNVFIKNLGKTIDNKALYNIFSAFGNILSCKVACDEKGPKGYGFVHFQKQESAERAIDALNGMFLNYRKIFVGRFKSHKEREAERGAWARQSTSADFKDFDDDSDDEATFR
Sequence	7-mer Z-score
UCCAAAG	0.0478
CACGUGG	-0.00833
GCUGCGU	-0.287
AGCGCAC	-0.0355
GGGCUCU	0.0986
GGCUUAU	-0.0319
GGAAGUU	-0.175
CAACUCA	-0.255
GACGAAC	-0.0101
UAGCUGC	-0.208
CCCAUAU	-0.398
CUAUAGG	-0.175
UGGCUCG	-0.284
GUAAUUU	-0.226

Block 7
Target: ABI1, truncated, D143A, DHFR fusion (Arabidopsis thaliana, UniProt P49597)
Technique: DHFR PCA, dose-response
Medium: yeast
Notes: Hill fit, mean, not affinity
With: (+)-ABA, dose series
Direction: lower = more sensitive
Parent: PYL1, truncated, DHFR fusion (Arabidopsis thaliana, UniProt Q8VZS8); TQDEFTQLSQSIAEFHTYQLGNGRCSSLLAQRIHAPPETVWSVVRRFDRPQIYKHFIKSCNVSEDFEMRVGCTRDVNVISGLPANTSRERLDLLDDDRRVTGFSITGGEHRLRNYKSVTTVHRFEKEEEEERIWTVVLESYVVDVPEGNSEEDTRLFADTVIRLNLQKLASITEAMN
Variant	ABA EC50 [µM]
L138Q	155
W134A	4.3
N61C	2.66
Q167F	12.5
S42F	65.5
R132K	1.25
E151L	5.05
I162S	709
V118R	2.08
S104K	153
S104V	100
S27H	2.14
M68C	2.86

Excerpt of the above (block 1):
target	lacZ reporter activity
UBE2L3 UBC core domain (UniProt P68036)	0
UBE2R2 UBC core domain (UniProt Q712K3)	0
UBE2I UBC core domain (UniProt P63279)	0
UBE2J2 UBC core domain (UniProt Q8N2K1)	0
UBE2J1 UBC core domain (UniProt Q9Y385)	0
UBE2T UBC core domain (UniProt Q9NPD8)	0
UBE2Q1 UBC core domain (UniProt Q7Z7E8)	0
